Assay results of several laboratories.
Numbered parts are unrelated; each lists some results of a single study. Substitutions count along the parent as printed.

Set 1
Target: Prothrombin, mature alpha-thrombin (F2, Homo sapiens, UniProt P00734)
Method: aptamer microarray, sandwich
Form: DNA with 2'F-ANA
Medium: in vitro
Concentration: 200 nM
Setting: whole 15-mer aptamer, many near background
With: Cy3 exosite-II aptamer, 400 nM
Direction: higher = stronger binding
Oligonucleotide: GGTTGGTGTGGTTGG
`2'F-ANA at 4 5 7 8 9 10 14 15`: “mean fluorescence intensity” 46.8 a.u.
Under “mean fluorescence intensity”, `2'F-ANA at 1 2 3 8 9 11` is recorded as 235 a.u.
For `2'F-ANA at 1 2 4 5 11 12 13 14 15`, “mean fluorescence intensity” read 51.3 a.u.
For `2'F-ANA at 3 4 6 8 11 15`, “mean fluorescence intensity” read 526 a.u.
For `2'F-ANA at 1 3 4 6 7 8 15`, “mean fluorescence intensity” read 244 a.u.
`2'F-ANA at 3 9 10 11 14`: “mean fluorescence intensity” 397 a.u.
Under “mean fluorescence intensity”, `2'F-ANA at 5 6 8 9 11 14 15` is recorded as 57 a.u.
For `2'F-ANA at 3 4 5 7 10 14 15`, “mean fluorescence intensity” read 51.1 a.u.
`2'F-ANA at 1 2 4 8 10 11 12 15`: “mean fluorescence intensity” 93.6 a.u.
For `2'F-ANA at 3 4 5 7 9 10 12`, “mean fluorescence intensity” read 61.4 a.u.
`2'F-ANA at 1 3 4 5 8 9 10 14`: “mean fluorescence intensity” 44.5 a.u.
`2'F-ANA at 4 6 8 9 10 12`: “mean fluorescence intensity” 106 a.u.
`2'F-ANA at 2 4 6 8 9 10 14 15` — result for “mean fluorescence intensity”: 69.8 a.u.
`2'F-ANA at 1 2 5 6 7 10 13 14`: “mean fluorescence intensity” 50.6 a.u.
Under “mean fluorescence intensity”, `2'F-ANA at 2 3 4 6 7 8 9 11 12` is recorded as 679 a.u.
`2'F-ANA at 5 6 7 11 12` — result for “mean fluorescence intensity”: 132 a.u.
For `2'F-ANA at 2 4 5 6 7 8 9 12 13`, “mean fluorescence intensity” read 114 a.u.
Under “mean fluorescence intensity”, `2'F-ANA at 3 4 7 8 9 10 12 14` is recorded as 196 a.u.
For `2'F-ANA at 3 6 7 9 10 11 13 15`, “mean fluorescence intensity” read 365 a.u.
`2'F-ANA at 5 6 7 12 13 14 15`: “mean fluorescence intensity” 46.8 a.u.
For `2'F-ANA at 4 5 8 9 10 11 13`, “mean fluorescence intensity” read 89.3 a.u.
Under “mean fluorescence intensity”, `2'F-ANA at 2 5 6 7 10 13 14` is recorded as 58.5 a.u.

Set 2
Target: RING finger protein unkempt homolog, zinc fingers 1-6, GST-SBP tag (UNK, Homo sapiens, UniProt Q9C0B0, residues 30-357)
Method: RNA Bind-n-Seq
Form: RNA
Medium: in vitro
Concentration: not given
Setting: RNA with constant flanks, human and mouse sites, ends assumed
Baseline: input RNA pool
Direction: higher = stronger binding
Residues (chain): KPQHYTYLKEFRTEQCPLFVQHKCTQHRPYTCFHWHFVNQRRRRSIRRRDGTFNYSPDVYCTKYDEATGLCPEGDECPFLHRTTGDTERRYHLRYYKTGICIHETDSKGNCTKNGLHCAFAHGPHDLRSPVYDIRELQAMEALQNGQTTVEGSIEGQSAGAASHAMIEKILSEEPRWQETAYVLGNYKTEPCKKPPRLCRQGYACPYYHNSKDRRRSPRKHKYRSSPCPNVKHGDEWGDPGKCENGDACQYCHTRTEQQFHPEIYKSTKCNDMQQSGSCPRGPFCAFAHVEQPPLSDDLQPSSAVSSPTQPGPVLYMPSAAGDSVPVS
`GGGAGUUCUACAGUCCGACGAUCUGCAACCUGGACGCCAUCAAGGUCUACUGCAACAUGGAGACAGGUCAGACCUGUGUGUUCCCUACUCAGCCGUCUGUGCCUCAGAAGAACUGGUACAUCAGCCCGAACCCCAAGGAAAAGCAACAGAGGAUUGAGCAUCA` has a bound/input enrichment of 0.171 ratio.
For `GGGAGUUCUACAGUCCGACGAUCGGCAAAAACCAUUCCAGAAAAGAUGGACUCAGUGAUGAAAGAGGAAGAGAUGACUGUGGAACCUUUGAGGACACAGGGCCCCUUCUCCAGUUUGACUAUAAGGCUGUUGCUGAUCGACUCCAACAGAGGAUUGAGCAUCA`, the bound/input enrichment was 0.0986 ratio.
`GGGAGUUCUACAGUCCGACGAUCGGCUAUGAUGUUUUAGCCAACCCCCCAGGACCAGAAGACCAGGAUGAUGAUGACGAUGCCUAUAGCGAUGUGUUUGAAUUUGAAUUUUCAGAGACCCCCCUCUUACCGUGUUAUAACAUCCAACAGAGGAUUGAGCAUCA` has a bound/input enrichment of 0.602 ratio.
The bound/input enrichment of `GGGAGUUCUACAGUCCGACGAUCAAGGGCUACUAGAGUGGUUCAGCAGAUAAGGUGCUGCUACCAAACCAGAUGACCUGAGUUCAGUCCCCAAAUUGCAUGUGGUAGGAGAGAAUUAACUCCUAAAAAUUGUCCUCUGGGGCUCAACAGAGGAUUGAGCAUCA` is reported as 0.25 ratio.
`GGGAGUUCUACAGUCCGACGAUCGGCAAAGUACAACAGCUACCAAAAUAUACAUCUCAAAUUGUGGGUAGAUUCAUUAAGCCUCUUAGCAAUGCAUACCACGAGUUAGCACAAGUGUAUUCAACCAACAACCCCUCAGAACUCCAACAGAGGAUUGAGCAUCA` has a bound/input enrichment of 0.455 ratio.
`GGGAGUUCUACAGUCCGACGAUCUUACAUUUAGGGUUUAUCAGAGCUUAAACUACUCUUAAAUUAUUUUCUAAACCUGUAGUACAAUGUAUCAUUGUAACUUCAACCAUUUUAUCCAAAGUAAACACCCAGCAAAAACAUAGUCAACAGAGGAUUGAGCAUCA` gave a bound/input enrichment of 1.59 ratio.
The bound/input enrichment of `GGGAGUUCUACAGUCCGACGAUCGGAGCCAAGAAUCUAAAAGAGAUGGAGACUCUUCAAGAAGUAGGAUUAAGGUACCUGCCUCAUGAAGAGCUUUUCUGCUCCCAGAUCUGGCAACAGAUUACAAGAGAGUUAAUCAAGUAUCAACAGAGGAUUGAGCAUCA` is reported as 0.134 ratio.
For `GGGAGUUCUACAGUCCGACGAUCACGAAGAUGAUAAAGACUGCAAAGAAGAGGAGAACAAAAGCAGCUCUGAGGGCGGAGACGCUGGCAAUGACACGAGAAACACGACUGCAGACUUGCAGAAAGCCGGUGAAGGGACCUAACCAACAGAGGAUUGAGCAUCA`, the bound/input enrichment was 0.216 ratio.
For `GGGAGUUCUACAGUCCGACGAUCUGUCUUGAUGACACAACAGUAAAAUUUGAAAUAUGGGAUACAGCUGGUCAAGAACGGUAUCAUAGCUUAGCACCAAUGUACUACCGAGGAGCACAAGCAGCCAUAGUUGUGUAUGAUAUCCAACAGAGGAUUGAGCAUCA`, the bound/input enrichment was 0.378 ratio.
The bound/input enrichment of `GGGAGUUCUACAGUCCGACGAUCCGGCCUGCUGGGAACGGGACUUCUAAAAGGAACUAUGUCUGGAAGGCUGUGGUCCAAGGCCAUUUUUGCUGGCUAUAAGCGGGGUCUCCGGAACCAAAGGGAGCACACAGCUCUUCUUAACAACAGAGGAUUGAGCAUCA` is reported as 0.104 ratio.
The bound/input enrichment of `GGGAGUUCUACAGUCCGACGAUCCGGAGCCCUCCUCUCCCACAGGCCCAAGAUAUAACCCACCAGUGCCUUUUGUCUUCCUGUCAGCUCUGUCAAUCACGCCUGUCCUCUCACGCCCACACCAAGUGCCCAAAGUGGGGAGGGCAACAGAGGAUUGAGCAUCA` is reported as 0.512 ratio.

Set 3
Target: Histone acetyltransferase KAT6A, winged helix 2, GST fusion (KAT6A, Homo sapiens, UniProt Q92794, residues 85-181)
Method: protein binding microarray
Form: double-stranded DNA, one strand shown
Medium: in vitro
Concentration: not given
Setting: 8-mer, flanks averaged, mean of 2 arrays, mostly near background
Baseline: not given
Direction: higher = stronger binding
Target sequence (chain): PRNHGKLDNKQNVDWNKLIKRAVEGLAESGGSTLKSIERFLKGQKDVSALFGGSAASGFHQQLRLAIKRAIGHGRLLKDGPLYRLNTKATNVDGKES
With `TCGATAGA` the E-score was 0.0692.
`ACAAGTTG` gave an E-score of -0.126.
`ATGTCTTG` has an E-score of -0.101.
`ACCATCGT` has an E-score of -0.144.
`AACGACCT` has an E-score of -0.0418.
For `TTCTAAAA`, the E-score was 0.248.
`AAATGTAT` gave an E-score of -0.123.
With `CGGAACGA` the E-score was 0.0584.
`CCGCGTCC` has an E-score of 0.163.
The E-score of `ACTCTCTC` is reported as -0.0644.
The E-score of `ACTATTGG` is reported as -0.144.
With `AGAGAGAT` the E-score was 0.111.
For `GAACCATA`, the E-score was 0.0256.
`CTATTGTA` has an E-score of 0.0303.
`AAGCAGTA` has an E-score of -0.00209.
`TAATCTCA` gave an E-score of -0.083.

Set 4
Target: CCNA1, cyclin fold, Cln2 fusion (human)
Method: yeast growth competition, sequencing
Medium: yeast
Setting: weak parent motif
Baseline: not given
Direction: higher = stronger binding
Starting sequence: LLGL2 docking peptide (human); KSLKKSLRQSFRR; partner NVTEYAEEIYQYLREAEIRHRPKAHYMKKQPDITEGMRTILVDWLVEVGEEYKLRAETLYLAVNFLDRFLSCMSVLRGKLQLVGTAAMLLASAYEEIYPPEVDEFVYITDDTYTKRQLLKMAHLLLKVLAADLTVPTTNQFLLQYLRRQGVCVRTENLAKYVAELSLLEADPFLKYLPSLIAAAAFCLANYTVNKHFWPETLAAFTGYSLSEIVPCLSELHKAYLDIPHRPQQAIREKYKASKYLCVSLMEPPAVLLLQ
Under “normalised enrichment score”, `KSLKKSLRQSFAR [R12A]` is recorded as 0.295.
`KSLKKSLRQAFRR [S10A]`: “normalised enrichment score” -0.412.
`KSLKKSARQSFRR [L7A]`: “normalised enrichment score” 0.429.
Under “normalised enrichment score”, `ASLKKSLRQSFRR [K1A]` is recorded as -0.145.
`KSLKKSLRQSFRA [R13A]`: “normalised enrichment score” 0.445.
`KSLKKSLRASFRR [Q9A]` — result for “normalised enrichment score”: 0.404.
`KSAKKSLRQSFRR [L3A]`: “normalised enrichment score” 0.5.

Set 5
Target: TAR DNA-binding protein 43, full length, His tag (TARDBP, Homo sapiens, UniProt Q13148, residues 1-414)
Method: RNA Bind-n-Seq
Form: RNA
Medium: in vitro
Concentration: 20 nM
Setting: 6-mer, flanks averaged, single round
With: 150 mM KCl
Baseline: input library
Direction: higher = stronger binding
`UUCGAG` — result for “6-mer enrichment (R)”: 0.79.
For `UGUAGG`, “6-mer enrichment (R)” read 1.46.
For `GUUAGA`, “6-mer enrichment (R)” read 0.812.
`AAGGGG`: “6-mer enrichment (R)” 4.17.
Under “6-mer enrichment (R)”, `GGGUCA` is recorded as 2.02.
`ACUUAC` — result for “6-mer enrichment (R)”: 0.567.
`GUCUCG`: “6-mer enrichment (R)” 0.822.
`CAGCAA` — result for “6-mer enrichment (R)”: 0.71.
For `UAGCUA`, “6-mer enrichment (R)” read 0.616.
`GGUCAU`: “6-mer enrichment (R)” 0.866.
For `CUAUCU`, “6-mer enrichment (R)” read 0.544.
Under “6-mer enrichment (R)”, `CAGCGG` is recorded as 1.86.
`ACUUGC`: “6-mer enrichment (R)” 0.628.
`CAAUCG`: “6-mer enrichment (R)” 0.637.
`CCUCUU` — result for “6-mer enrichment (R)”: 0.601.
Under “6-mer enrichment (R)”, `CAAAAG` is recorded as 0.718.
Under “6-mer enrichment (R)”, `CGACUA` is recorded as 0.618.
`AAAUAA` — result for “6-mer enrichment (R)”: 0.898.
For `CAAUGG`, “6-mer enrichment (R)” read 1.
`UCGCCG`: “6-mer enrichment (R)” 0.789.
For `CCAUAC`, “6-mer enrichment (R)” read 0.597.
`UCAGAG` — result for “6-mer enrichment (R)”: 0.936.
`UAGCCG`: “6-mer enrichment (R)” 0.823.
Under “6-mer enrichment (R)”, `UCCUAG` is recorded as 0.635.
`GAACGA`: “6-mer enrichment (R)” 0.906.

Repeated from above (set 1):
Under “mean fluorescence intensity”, `2'F-ANA at 3 4 7 8 9 10 12 14` is recorded as 196 a.u.
For `2'F-ANA at 3 6 7 9 10 11 13 15`, “mean fluorescence intensity” read 365 a.u.
`2'F-ANA at 5 6 7 12 13 14 15`: “mean fluorescence intensity” 46.8 a.u.
For `2'F-ANA at 4 5 8 9 10 11 13`, “mean fluorescence intensity” read 89.3 a.u.
